Experimental data pooled from the literature.
Parts stem from different laboratories: compare values within a part only.

Series 1
Target: Centromere-binding protein 1, full length, His-tagged (CBF1, Saccharomyces cerevisiae, UniProt P17106, residues 1-351)
Sequence of UniProt P17106 (whole entry, looked up): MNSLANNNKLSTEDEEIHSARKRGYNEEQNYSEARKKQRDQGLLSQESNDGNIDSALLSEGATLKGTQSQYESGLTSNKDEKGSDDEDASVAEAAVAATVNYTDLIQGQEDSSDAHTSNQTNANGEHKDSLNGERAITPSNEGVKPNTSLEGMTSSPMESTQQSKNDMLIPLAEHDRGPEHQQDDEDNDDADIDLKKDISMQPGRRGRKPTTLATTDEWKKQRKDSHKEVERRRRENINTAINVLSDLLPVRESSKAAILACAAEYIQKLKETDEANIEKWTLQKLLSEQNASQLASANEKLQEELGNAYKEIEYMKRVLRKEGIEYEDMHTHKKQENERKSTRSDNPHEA
Technique: competition protein-binding microarray
Form: double-stranded DNA, one strand shown
Matrix: in vitro
Concentration: 2 µM
Setting: whole 60-bp probe, lowest competitor level
Together with: Pho4 competitor, 0.05 µM
Direction: higher = stronger binding
Quantity: fluorescence intensity
CCCGTCCATTGAGTGCCCGTGCCGAATCAAGCTAAAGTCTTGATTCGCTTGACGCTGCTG: 87.9 a.u.
GTATAGTATCCACTTCGTGTGACAGTACTATAATCGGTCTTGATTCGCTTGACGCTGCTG: 99.3 a.u.
ACCGGGAAAATCCAACACGTGATGGTCCGACATGGAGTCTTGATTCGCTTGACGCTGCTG: 3390 a.u.
CGGGGTTAAGTTTTTCACGTGCCCTGCTTGCAGCAGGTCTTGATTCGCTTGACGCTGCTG: 1130 a.u.
GAATTGGTAGAACTGGTCGTGCCAGTAACACCGGTCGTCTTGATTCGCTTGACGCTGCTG: 57.4 a.u.
TCAGAATGCAAGAAACACGTGAAAAGGTGGAACTTTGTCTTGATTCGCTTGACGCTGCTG: 979 a.u.
CATACCCAACCTTTTCACGTGTTATAAGATATTTGTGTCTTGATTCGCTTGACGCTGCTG: 1160 a.u.
GCTCATCCTTCTGTTCATGCGTGAAGGCTGAATTATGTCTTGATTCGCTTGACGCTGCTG: 90.6 a.u.
CTAACGAAGGTTTGTCAGGTGGGTGACAAGCCAAGTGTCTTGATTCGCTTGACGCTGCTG: 137 a.u.
CACCGACTGCTTCCGTGCGTGATGGGTAATGCAGTGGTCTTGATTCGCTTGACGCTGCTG: 90.5 a.u.
TGTATGAGAGTGGTCGATTTCAATCGGCAACATTCTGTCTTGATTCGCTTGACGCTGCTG: 62.3 a.u.
CCGGCCCGTCCCGTCCGCGTGGTGAGTAATTCTGGCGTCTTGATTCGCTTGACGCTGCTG: 93.2 a.u.
TGCGCAACAACTTGTTTGGTGGGTGTATGTCTAGAAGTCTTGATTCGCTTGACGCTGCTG: 67.9 a.u.
CTTTCCCGATCTTGTCACTCAACTTTAGCACATTTGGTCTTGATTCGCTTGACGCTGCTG: 87.7 a.u.
GATCCAGATTTCGACCACGTGCTAATTATGCGTTTGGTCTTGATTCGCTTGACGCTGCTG: 4200 a.u.
CGACCCAGTTGTACGAGGCAACAGGCCCGACTTCACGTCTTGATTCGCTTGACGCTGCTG: 69.2 a.u.
CTAACGAAGGTTTGTAGTGTGGGTGACAAGCCAAGTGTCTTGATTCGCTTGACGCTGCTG: 62.1 a.u.
AAAGCGGTAATTTGCTTGGTGGGTGCAGATATCTATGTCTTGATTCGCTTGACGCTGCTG: 68.1 a.u.
AAAACAACATAAAAATCCGTGATGGTTTAATGGTCAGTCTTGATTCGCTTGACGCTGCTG: 107 a.u.
CTTTCCCGATCTTGATGGGTGGGTGTAGCACATTTGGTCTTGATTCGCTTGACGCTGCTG: 60.2 a.u.
ACACTGAATCCGGGCAACGTGTCCAGAACTTGCATTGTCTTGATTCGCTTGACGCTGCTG: 85 a.u.
GGCAATATCAGTACCCACGTAACCGTGTGTTTCAGCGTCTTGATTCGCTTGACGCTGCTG: 69.1 a.u.
CGTCCTAGCGATTGAGACGTGGGTGCCATGAGGAAGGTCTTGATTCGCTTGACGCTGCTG: 72 a.u.
TGTAGTGGCAGTTTGCACGGGGTTTCCTGTGCCTTAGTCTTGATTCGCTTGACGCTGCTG: 162 a.u.
TCTTTCATTAATCGCCACCTGATGTTTTTCGCTGCTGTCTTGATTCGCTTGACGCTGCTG: 171 a.u.

Series 2
Target: Ras GTPase-activating protein-binding protein 1, full length (G3BP1, Homo sapiens, UniProt Q13283)
Sequence of UniProt Q13283 (whole entry, looked up): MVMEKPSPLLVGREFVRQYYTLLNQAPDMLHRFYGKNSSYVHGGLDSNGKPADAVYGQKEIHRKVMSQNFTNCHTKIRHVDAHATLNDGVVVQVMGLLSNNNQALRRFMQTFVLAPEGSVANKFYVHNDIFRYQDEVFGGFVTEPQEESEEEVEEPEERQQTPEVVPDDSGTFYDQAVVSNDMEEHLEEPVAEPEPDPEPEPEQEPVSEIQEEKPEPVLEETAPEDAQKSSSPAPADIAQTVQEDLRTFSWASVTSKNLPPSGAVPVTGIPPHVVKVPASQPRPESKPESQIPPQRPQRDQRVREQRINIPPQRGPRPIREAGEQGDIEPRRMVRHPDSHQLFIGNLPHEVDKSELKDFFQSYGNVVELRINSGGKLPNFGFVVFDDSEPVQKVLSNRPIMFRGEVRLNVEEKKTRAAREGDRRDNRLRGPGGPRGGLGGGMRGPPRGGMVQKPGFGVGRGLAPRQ
Technique: RNA Bind-n-Seq
Form: RNA
Matrix: in vitro
Concentration: 200 nM
Setting: whole 134-nt RNA, ends assumed
Together with: 150 mM LiCl
Reference: input library
Direction: higher = stronger binding
Quantity: log2 enrichment
Each molecule: 7-deaza-guanosine replaces G
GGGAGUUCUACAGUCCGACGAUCAGUCCUGUGCUACACAUCGUAUGUACCGAAUCGGGUUUUUUUGGGUUUGGGAAAGGGAAAGUAUUAUGUUACGCCGUUCGGAUCUGCACUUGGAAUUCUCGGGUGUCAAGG: -0.962
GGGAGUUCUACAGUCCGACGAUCCCUGUGCUACACAUCGUAUGUACCGAAUCGGGGAAAAAAGGGGAAAAAAGGAAAAAAGGGGAAAGUAUUAUGUUACGCCGUUCGGAUCUGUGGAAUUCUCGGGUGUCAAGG: 0.803
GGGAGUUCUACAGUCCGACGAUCACCAUGCAGGUGGGCAUCUUUGGGAAGUGGGGCAAGGGGGGGAUAGGGAGGUGGGUAACACUUUGGGAACAGGUGGUCCCAGGUCGUUUCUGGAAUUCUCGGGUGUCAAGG: 0.386
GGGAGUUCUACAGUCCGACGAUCCUGUGCUACACAUCGUAUGUACCGAAUCGGGCCCCCCCGGCCCCCCCGGGGCCCCCCCGGGGAAAGUAUUAUGUUACGCCGUUCGGAUCUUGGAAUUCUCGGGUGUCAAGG: 0.524
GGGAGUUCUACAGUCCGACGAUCUCCUGUGCUACACAUCGUAUGUACCGAAUCGGGAAAGGGUUUUUUUGGGAAAAAAAGGGAAAGUAUUAUGUUACGCCGUUCGGAUCUGCAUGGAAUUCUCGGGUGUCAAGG: -0.434
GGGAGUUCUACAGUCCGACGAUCAGUCCUGUGCUACACAUCGUAUGUACCGAAUCGGUUUUUUUGGUUUGGUUUUUUUGGAAAGUAUUAUGUUACGCCGUUCGGAUCUGCACUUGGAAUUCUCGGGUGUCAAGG: -2.27
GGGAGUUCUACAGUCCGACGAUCCACAGACAACACGCACCCACACAAAAACAGAGGGAAGGGGUUGGGAUGGGGACAGGGUGCACAGCAGGGCGGGGUAGGACCCCAGCCCCUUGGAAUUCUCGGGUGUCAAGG: -0.49
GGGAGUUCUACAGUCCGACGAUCCCUGUGCUACACAUCGUAUGUACCGAAUCGGGGCCCCCCGGGGCCCCCCGGGCCCCCCGGGAAAGUAUUAUGUUACGCCGUUCGGAUCUGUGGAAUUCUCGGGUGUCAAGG: -1.76
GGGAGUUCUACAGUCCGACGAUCUGGCCCUGGUGGCAUGCGGGGAGGAAGAGGUGGCCUCAUGGAUCGUGGUGGUCCCGGUGGAAUGUUCAGAGGUGGUCGUGGUGGAGACAGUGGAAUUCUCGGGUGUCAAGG: -0.0585
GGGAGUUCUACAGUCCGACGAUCCACAGACAACACGCACCCAUACAGACACAGAGGGAAGGGGUUGGGAUGGGGACAGGGUGCACAGCAGGGCGGGGUAGGACCCCAGCCCCUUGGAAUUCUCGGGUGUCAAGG: 0.069
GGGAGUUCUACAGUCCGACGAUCCAAGUCCUGUGCUACACAUCGUAUGUACCGAAUCGGUUUGGGGUUUGGGUUUGGGGAAAGUAUUAUGUUACGCCGUUCGGAUCUGCACUUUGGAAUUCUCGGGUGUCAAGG: -1.03

Series 3
Target: RNA binding protein fox-1 homolog 2, RRM domain, GST-SBP tag (RBFOX2, Homo sapiens, UniProt O43251-10, residues 100-194)
Technique: RNA Bind-n-Seq
Form: RNA
Matrix: in vitro
Concentration: 365 nM
Setting: natural RNA segment, single round, ends assumed
Reference: no-protein control
Direction: higher = stronger binding
Quantity: RBNS enrichment (R)
Target sequence (chain): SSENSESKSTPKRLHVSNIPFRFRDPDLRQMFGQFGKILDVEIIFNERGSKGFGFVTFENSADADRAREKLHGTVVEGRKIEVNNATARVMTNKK
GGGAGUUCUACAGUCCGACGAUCAUUUGGUGGGUAGAAAUACAGUCAGGUGGUUAUAGAGCACAUACCUAGCAUAUGUGAAGCCAUGGGUUCUAUUCUCAGAACUGAAAAAAAAAAAAAUUCCAUCCUCGUAUUGGAAUUCUCGGGUGCCAA: 0.504
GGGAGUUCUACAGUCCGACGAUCAAUAUCAUAUGGGAAAUGUCAUAGUUAAAAACGUACAGCCAGGCCCGUGUGCUGUUAAUAGUGUGAAAUUGUCAUGUUAAAAAAAAAAACAGGAACCAAAUGUGACCUUGUGGAAUUCUCGGGUGCCAA: 0.418
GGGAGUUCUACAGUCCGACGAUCGAUAUGGCCCUCAUCGUCGUGUAAUGUUUGUGCACCUCCCUGCUGUGCAGGCAGCUUGGAGUGCAGGCUGUGUUGCUGGGAGUGCGCUGGCUGCUUAGAAACCACGAGACUGGAAUUCUCGGGUGCCAA: 0.823
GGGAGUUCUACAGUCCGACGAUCCACUUGUGGUCUGAAUGUUCUCCUGAGGCCUCUGGCUAGAGUCUAGCCCCACCCAGGGGGAGGGGCUUAGCUGCUGAAAGUCCACCUUGCUAGAGCUAGGGUGGCUCUUGUGGAAUUCUCGGGUGCCAA: 0.417
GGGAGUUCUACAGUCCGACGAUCAGCAAAUGAAAAGGAAUCUAUUUAUGGAAUAAACUCGAAACCUAAAUUUCAGUAUUUUAGUAAUAUGCCAGCUGUUCUUAAUGUAUUUAUUAAAAUGUAUAACAAUGUGAUGGAAUUCUCGGGUGCCAA: 0.478
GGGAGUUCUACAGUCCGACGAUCUCCAUCUGCACACACCCCCAAGGUAAGGGUACAGCCCGGCUGGCGGCCUCCUUGGGAACGUGUAGGCCACGGCUCUGCCACCACUAGGUACCUGCUGAGGGCGCUGGCUCUGGAAUUCUCGGGUGCCAA: 0.339
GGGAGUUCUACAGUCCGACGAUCUAAUGCCAAAUGCUCUUUAGUAAAAUGCUGAAUUACGGUGUUUUUUUUUUUUUUGCAUCAUUUGUCUUUAAUAUUCAUAAUGUCAUGUGCUUAAAAGUGAGCUUGAAACGUGGAAUUCUCGGGUGCCAA: 0.428
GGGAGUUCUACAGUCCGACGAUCUGUGUAUGUUUUUGCUUCCCAUGUAACUUCUCCAGUGUUCUGGCAUGAAUUAGAUUUUACUGCUUGUCAUUUUGUUAUUUUCUUACCAAGUGCAUUGAUAUGUGAAGUAGUGGAAUUCUCGGGUGCCAA: 3.34
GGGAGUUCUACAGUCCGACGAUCAAAUGUUUUCAAGAAAUCACUUAAGUGUUCAUAGACCAGUAUUUCUGACAGGUAAAAUGCUAAAAUAAGCUACCUGUAAUAAGUGUGGAUUAUAUUUUUGGGUUUUGUAGUGGAAUUCUCGGGUGCCAA: 0.496

Series 4
Target: PABPC1L2, full length, GST fusion (mouse, UniProt A0ABA7IW68)
Technique: RNAcompete
Form: RNA
Matrix: in vitro
Concentration: 20 nM
Setting: 7-mer, probes averaged, single round
Reference: mean of 7-mers
Direction: higher = stronger binding
Quantity: 7-mer Z-score
Target sequence (chain): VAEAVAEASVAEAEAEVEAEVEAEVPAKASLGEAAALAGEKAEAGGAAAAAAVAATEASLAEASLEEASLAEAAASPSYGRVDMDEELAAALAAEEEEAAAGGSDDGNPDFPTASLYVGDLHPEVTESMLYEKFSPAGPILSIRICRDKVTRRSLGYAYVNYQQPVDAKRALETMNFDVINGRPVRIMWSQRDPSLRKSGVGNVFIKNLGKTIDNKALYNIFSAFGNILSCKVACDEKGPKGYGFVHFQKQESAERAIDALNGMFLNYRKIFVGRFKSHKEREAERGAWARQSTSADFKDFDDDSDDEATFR
UUAGUGC: -0.13
AUACGGA: 0.0696
CUACUGC: -0.391
CAGUAGA: 0.0207
UGUACGG: -0.0899
CCCCCCA: -0.421
UGAUACG: -0.262
GCGCACU: -0.249
CGCCCGG: -0.128
GGGCUUC: -0.0863
CACGUUA: -0.141
CACAUGC: -0.22
GGGAUAU: 0.191
CCCCGUC: -0.494
GCUAAGU: -0.18
AAUCCGC: -0.199
CCGCCUC: -0.452
UGCUGAU: -0.161
AGCAUGA: 0.3
GACUAUG: -0.104
CGAAACA: 0.843
UCAUGCG: -0.0989
AUCCCGG: -0.137
UUACAUU: -0.124
ACCGGUG: -0.0826

Some of these lines once more (series 4):
AUACGGA: 0.0696
ACCGGUG: -0.0826
CGCCCGG: -0.128
UGAUACG: -0.262
CGAAACA: 0.843
CAGUAGA: 0.0207
CCCCGUC: -0.494
GACUAUG: -0.104
CACGUUA: -0.141
GCGCACU: -0.249
GGGAUAU: 0.191
